# Measurements of several laboratories.
# Protocols differ between the studies behind these lines. “And” joins repeats or separate records; there may be more than shown.
# Target: Serine/threonine-protein kinase TBK1 (TBK1, Homo sapiens, UniProt Q9UHD2)
Structure (SMILES),assay,test system,setting,how to read,measurement,result
NC(=O)[C@@H](O)C[C@H]1CCc2sc3ncnc(O[C@H]4CC[C@H](N5CCOCC5)CC4)c3c21,"enzyme activity, inhibitor",,10 µM,,inhibition,3%
Nc1nc(Nc2ccccc2)sc1C(=O)c1ccccc1,"enzyme activity, inhibitor",,10 µM,,remaining activity,53%
Cc1ccc(C(=O)Nc2ccc(CN3CCN(C)CC3)c(C(F)(F)F)c2)cc1C#Cc1cnc2cccnn12,"target engagement, NanoBRET",human cells,,,Hill slope,-0.505
COCC12C(=O)NC3C4(C(OC)CC1O)C1CC5(O)C(OC)C(O)C(OC(C)=O)(C1C5OC(=O)c1ccccc1)C3(O)C(OC)C24 (centres unmarked),"kinase activity, inhibitor, ProQinase kinase profiling",,25 µM,baseline: control,remaining activity,91% and 90%
Nc1ncc2c(n1)-c1c([nH]c3ccc(C4=CCOCC4)cc13)CCC2,"binding, competition with immobilised ligand",,1 µM,,remaining binding,100%
Cc1cccc(O[C@H]2CCC[C@@H](C(C)CNCc3ccncc3)C2)c1 (relative stereo),"enzyme activity, inhibitor",,10 µM,,inhibition,-3%
O=C(Cc1ccc(OCc2ccccc2)cc1)NC1(C(=O)O)CCN(C(=O)c2ccc(-c3cccc(Cl)c3)cc2)CC1,"enzyme activity, inhibitor",,10 µM,,activity vs control,106%
CC(C)=CC1OC(C)(C)C2C=C3C(=O)C(Cl)=CC(O)C3C3C(O)C4OC4C(=O)C132 (centres unmarked),"cell-free assay, competition with immobilised ligand",,10 µM,,remaining binding,89%
O=C(Nc1ccc(Oc2ncnc3[nH]cc(-c4ccccc4)c23)c(F)c1)c1c2n(n(-c3cc(F)ccc3F)c1=O)CCCC2,"enzyme activity, inhibitor",,0.5 µM,,inhibition,3%
COc1cc(Nc2nc(C)cc(-c3cnn4nc(OC)ccc34)n2)cc(C(F)(F)F)c1,"binding, competition with immobilised ligand",,1 µM,,remaining binding,80%
Cn1cc(-c2cnc3ccc(NC(=O)Nc4ccc5sccc5c4)cc3n2)cn1,"kinase binding, KiNativ profiling, refers to: Lys1 peptide",PANC-1 lysate,2.5 µM,,inhibition,13.1%
CN1CCN(Cc2ccc(-c3ccc(CO[C@H]4CCC[C@@H]4NC(=O)c4cc(-c5cnn(C)c5)cnc4N)cc3)cc2)CC1,"enzyme activity, inhibitor",,0.1 µM,,inhibition,12%
CNC(=O)C1CCN(c2cc(C)c(F)cc2NC(=O)c2ccc(-c3cc(O)ccc3C)c(C)c2)CC1,"binding, competition with immobilised ligand",,1 µM,,remaining binding,100%
Cc1cccc(-c2ccc3nc(NC(=O)C4CCOCC4)nn3c2)c1,"enzyme activity, Dundee kinase panel",,10 µM,,remaining activity,99%
CCn1cc(C(=O)O)c(=O)c2c(N)c(F)c(NC3CCCCC3)cc21,kinase activity,,"0.1 µM, added: ATP at Km",,inhibition,-13.8%
C=CC(=O)Nc1cccc(-c2cnc3[nH]cc(C(=O)NC(C)(C)C)c3n2)c1,"enzyme activity, inhibitor",,0.1 µM,,inhibition,20%
C=CC(=O)N1CCCC(n2c(=O)c3ncccc3n(Cc3ccc(Oc4ccccc4)cc3)c2=O)C1 (centres unmarked),"cell-free assay, competition with immobilised ligand",,1 µM,,remaining binding,98%
Cc1ccc(C)c(-c2ccc3nc(NC(=O)C4CCCCC4)nn3c2)c1,"enzyme activity, Dundee kinase panel",,10 µM,,remaining activity,86%
O=C=[N][Ru-4]123([n]4c5ccc(O)cc5c5c6c(c7cc(F)c[n+]1c7c54)C(=O)NC6=O)[S+]1CC[S+]2CC[S+]3CC1 (centres unmarked),enzyme activity,,"100 nM, human enzyme, added: 10 µM ATP",baseline: untreated,remaining activity,90%
COc1c(Cl)cccc1Nc1c(-c2ccncc2C#C[C@@]2(C)CCCN2C(=O)/C=C/CN(C)C)[nH]c2c1C(=O)NCC2,"binding, competition with immobilised ligand",,3 µM,,remaining binding,100%

# A few entries again:
Structure (SMILES),assay,test system,setting,how to read,measurement,result
Cc1cccc(-c2ccc3nc(NC(=O)C4CCOCC4)nn3c2)c1,"enzyme activity, Dundee kinase panel",,10 µM,,remaining activity,99%
Cc1ccc(C(=O)Nc2ccc(CN3CCN(C)CC3)c(C(F)(F)F)c2)cc1C#Cc1cnc2cccnn12,"target engagement, NanoBRET",human cells,,,Hill slope,-0.505
Cn1cc(-c2cnc3ccc(NC(=O)Nc4ccc5sccc5c4)cc3n2)cn1,"kinase binding, KiNativ profiling, refers to: Lys1 peptide",PANC-1 lysate,2.5 µM,,inhibition,13.1%
